Measured values collected from several papers.
Compare with care: the assays were run in different laboratories.
Medium: plasma

Compound | test system | setting | quantity | value
CC[C@H](C)[C@H](NC(=O)[C@H](CC(C)C)NC(=O)[C@H](Cc1c[nH]c2ccccc12)NC(=O)[C@H](C)NC(=O)[C@@H](NC(=O)[C@H](Cc1ccccc1)NC(=O)[C@H](CC(=O)O)NC(=O)[C@H](CCCNC(=N)N)NC(=O)[C@H](C)NC(=O)[C@H](C)NC(=O)[C@H](CC(C)C)NC(=O)[C@H](C)NC(=O)[C@H](CC(=O)O)NC(=O)[C@H](CC(C)C)NC(=O)[C@@H](NC(=O)[C@@H](NC(=O)[C@H](C)NC(=O)[C@H](CC(C)C)NC(=O)[C@H](CCC(=O)O)NC(=O)[C@H](CO)NC(=O)[C@H](CO)NC(=O)[C@H](Cc1ccccc1)NC(=O)[C@@H](NC(=O)CNC(=O)[C@H](CCC(=O)O)NC(=O)CNC(=O)[C@@H](N)Cc1c[nH]cn1)[C@@H](C)O)[C@@H](C)O)[C@@H](C)CC)[C@@H](C)CC)C(=O)N[C@@H](C)C(=O)N[C@H](C(=O)N[C@@H](CCCCN)C(=O)N[C@H](C(=O)N[C@H](C(=O)N[C@@H](CC(=O)O)C(=O)N[C@@H](CCCCN)C(=O)N[C@@H](CCCCN)C(=O)O)[C@@H](C)O)[C@@H](C)CC)[C@@H](C)O | healthy human subjects | subcutaneous, 10 mg once weekly, day 36 after 6 doses, steady state, median | tmax | 8 h
CCc1cc(Nc2nc(-c3ccc(-n4cnc(C)c4)c(F)c3)cs2)c(C)cc1C | human, both sexes | oral, 400 mg once daily, day 14, multiple dose, geometric mean | Tmax | 3.2 h
CN1CCC[C@]1(C)/C=C/S(=O)(=O)NC(=O)Nc1c2c(cc3c1CCC3)CCC2 | human | oral, 12.5 mg twice daily, day 14, multiple ascending dose | Tmax after second dose, median | 1.5 h
CC[C@H](C)[C@H](NC(=O)[C@H](CC(C)C)NC(=O)[C@H](Cc1c[nH]c2ccccc12)NC(=O)[C@H](C)NC(=O)[C@@H](NC(=O)[C@H](Cc1ccccc1)NC(=O)[C@H](CC(=O)O)NC(=O)[C@H](CCCNC(=N)N)NC(=O)[C@H](C)NC(=O)[C@H](C)NC(=O)[C@H](CC(C)C)NC(=O)[C@H](C)NC(=O)[C@H](CC(=O)O)NC(=O)[C@H](CC(C)C)NC(=O)[C@@H](NC(=O)[C@@H](NC(=O)[C@H](C)NC(=O)[C@H](CC(C)C)NC(=O)[C@H](CCC(=O)O)NC(=O)[C@H](CO)NC(=O)[C@H](CO)NC(=O)[C@H](Cc1ccccc1)NC(=O)[C@@H](NC(=O)CNC(=O)[C@H](CCC(=O)O)NC(=O)CNC(=O)[C@@H](N)Cc1cnc[nH]1)[C@@H](C)O)[C@@H](C)O)[C@@H](C)CC)[C@@H](C)CC)C(=O)N[C@@H](C)C(=O)N[C@H](C(=O)N[C@@H](CCCCN)C(=O)N[C@H](C(=O)N[C@H](C(=O)N[C@@H](CC(=O)O)C(=O)N[C@@H](CCCCN)C(=O)N[C@@H](CCCCN)C(=O)N[C@@H](CCCCN)C(=O)N[C@@H](CCCCN)C(=O)N[C@@H](CCCCN)C(=O)N[C@@H](CCCCN)C(N)=O)[C@@H](C)O)[C@@H](C)CC)[C@@H](C)O | healthy human subjects | intravenous infusion, 1 mg, 15 min infusion | tmax | 0.42 h
O=C(CCc1ccc(CNC(C(=O)OC2CCCC2)C2CCCCC2)cn1)NO (stereo not shown) | human | oral, 10 mg, single dose, median | Tmax | 0.5 h
CCCOc1ccc(S(N)(=O)=O)cc1-c1nc2c(CCC)nn(C)c2c(=O)[nH]1 | healthy male humans | oral, 200 mg udenafil, together with: dapoxetine 60 mg | Tmax (median) | 3.5 h
CC[C@H](C)[C@H](NC(=O)[C@H](CC(C)C)NC(=O)[C@H](Cc1c[nH]c2ccccc12)NC(=O)[C@H](C)NC(=O)[C@@H](NC(=O)[C@H](Cc1ccccc1)NC(=O)[C@H](CC(=O)O)NC(=O)[C@H](CCCNC(=N)N)NC(=O)[C@H](C)NC(=O)[C@H](C)NC(=O)[C@H](CC(C)C)NC(=O)[C@H](C)NC(=O)[C@H](CC(=O)O)NC(=O)[C@H](CC(C)C)NC(=O)[C@@H](NC(=O)[C@@H](NC(=O)[C@H](C)NC(=O)[C@H](CC(C)C)NC(=O)[C@H](CCC(=O)O)NC(=O)[C@H](CO)NC(=O)[C@H](CO)NC(=O)[C@H](Cc1ccccc1)NC(=O)[C@@H](NC(=O)CNC(=O)[C@H](CCC(=O)O)NC(=O)CNC(=O)[C@@H](N)Cc1c[nH]cn1)[C@@H](C)O)[C@@H](C)O)[C@@H](C)CC)[C@@H](C)CC)C(=O)N[C@@H](C)C(=O)N[C@H](C(=O)N[C@@H](CCCCN)C(=O)N[C@H](C(=O)N[C@H](C(=O)N[C@@H](CC(=O)O)C(=O)N[C@@H](CCCCN)C(=O)O)[C@@H](C)O)[C@@H](C)CC)[C@@H](C)O | healthy human subjects | subcutaneous, 10 mg once weekly, day 36 after 6 doses, steady state, median | tmax | 18.1 h
CCc1c2c(nc3ccc(O)cc13)-c1cc3c(c(=O)n1C2)COC(=O)[C@]3(O)CC | human patients | intravenous, 6 mg/m^2 of parent drug | Tmax | 1 h
Cn1c(=O)oc2ccc(-c3ccc(CC(C#N)NC(=O)C4CNCCCO4)c(F)c3)cc21 (stereo not shown) | human volunteers | 80 mg single dose, fasted, median | Tmax | 0.75 h
O=C(CCc1ccc(CNC(C(=O)O)C2CCCCC2)cn1)NO (stereo not shown) | human | oral, 20 mg once daily, day 1, median | Tmax | 1 h

Some of these lines once more:
Compound | test system | setting | quantity | value
CC[C@H](C)[C@H](NC(=O)[C@H](CC(C)C)NC(=O)[C@H](Cc1c[nH]c2ccccc12)NC(=O)[C@H](C)NC(=O)[C@@H](NC(=O)[C@H](Cc1ccccc1)NC(=O)[C@H](CC(=O)O)NC(=O)[C@H](CCCNC(=N)N)NC(=O)[C@H](C)NC(=O)[C@H](C)NC(=O)[C@H](CC(C)C)NC(=O)[C@H](C)NC(=O)[C@H](CC(=O)O)NC(=O)[C@H](CC(C)C)NC(=O)[C@@H](NC(=O)[C@@H](NC(=O)[C@H](C)NC(=O)[C@H](CC(C)C)NC(=O)[C@H](CCC(=O)O)NC(=O)[C@H](CO)NC(=O)[C@H](CO)NC(=O)[C@H](Cc1ccccc1)NC(=O)[C@@H](NC(=O)CNC(=O)[C@H](CCC(=O)O)NC(=O)CNC(=O)[C@@H](N)Cc1cnc[nH]1)[C@@H](C)O)[C@@H](C)O)[C@@H](C)CC)[C@@H](C)CC)C(=O)N[C@@H](C)C(=O)N[C@H](C(=O)N[C@@H](CCCCN)C(=O)N[C@H](C(=O)N[C@H](C(=O)N[C@@H](CC(=O)O)C(=O)N[C@@H](CCCCN)C(=O)N[C@@H](CCCCN)C(=O)N[C@@H](CCCCN)C(=O)N[C@@H](CCCCN)C(=O)N[C@@H](CCCCN)C(=O)N[C@@H](CCCCN)C(N)=O)[C@@H](C)O)[C@@H](C)CC)[C@@H](C)O | healthy human subjects | intravenous infusion, 1 mg, 15 min infusion | tmax | 0.42 h
